Assay results pooled from the literature.
Protocols differ between the studies behind these lines. Several values in a cell are separate wells, animals, samples, runs or records. ± marks the error that the study gave.

COc1cc(O)ccc1CCC(c1ccc(O)cc1)c1cc2c(c(C)c1O)OC(c1ccc(O)cc1)CC2 (mixture of isomers)
TXB2 level (human blood; 30 µM, with: A23187): 894 ± 330 pg/mL

COC1OC(C)C(OS(=O)(=O)O)C(OC2OC(C)C(OS(=O)(=O)O)C(OC3OC(C)C(OS(=O)(=O)O)C(OC4OC(C)C(OS(=O)(=O)O)C(OC5OC(C)C(OS(=O)(=O)O)C(OC6OC(C)C(OS(=O)(=O)O)C(OC7OC(C)C(OS(=O)(=O)O)C(OS(=O)(=O)O)C7OS(=O)(=O)O)C6OS(=O)(=O)O)C5OS(=O)(=O)O)C4OS(=O)(=O)O)C3OS(=O)(=O)O)C2OS(=O)(=O)O)C1OS(=O)(=O)O (stereo not drawn)
activated partial thromboplastin time (human plasma; 32 µg/mL): 84.4 s and 83.6 s and 84.7 s

O=C(NC1CCOCC1)c1ccc([C@H]2[C@@H](F)[C@@H](F)C[C@@H](F)[C@H]2F)cc1
hepatic clearance (hepatocyte stability; cryopreserved rat hepatocytes; 1 µM): 10 mL/min/kg

Nc1nc2cc(CC[C@H]3C[C@@H](n4ccc5c(N)ncnc54)[C@H](O)[C@@H]3O)ccc2cc1Br
tumour volume (NCI-H441 xenograft, mouse; 3.0 mg/kg/day, day 38): 128 ± 20 mm3

COCC1CN(C2CCN(c3cc(OC)c(Nc4ncc(Br)c(Nc5ccc6c(c5P(C)(C)=O)OCCO6)n4)cc3C)CC2)C1
disease control rate (RECIST 1.1; advanced EGFR-mutant NSCLC patients; 10 mg once daily): 0%

CN(C)C(=O)CNC(=O)c1ccc([C@H]2[C@@H](F)[C@@H](F)C[C@@H](F)[C@H]2F)cc1
hepatic clearance (hepatocyte stability; cryopreserved human hepatocytes; 1 µM): 6.2 mL/min/kg

CC(=O)[O-].O.O.[O-]c1ccc(Br)cc1C=NCCN1CCOCC1.[Zn+2]
inhibition (DPPH radical scavenging; 40 µM): 10.3%

COc1ccc(NC(=O)c2ccc3[nH]c(-c4ccc(N(C)C)cc4)nc3c2)cn1
tumour volume (CT26, BALB/c mice, subcutaneous syngeneic graft; dose not given, day 2): 56.3 mm3 and 82.3 mm3 and 70.1 mm3 and 71.7 mm3 and 97.1 mm3

COC1OC(C)C(OC2OC(C)C(OS(=O)(=O)O)C(OC3OC(C)C(OC4OC(C)C(OS(=O)(=O)O)C(OC5OC(C)C(OC6OC(C)C(OS(=O)(=O)O)C(OC7OC(C)C(OS(=O)(=O)O)C(OS(=O)(=O)O)C7OS(=O)(=O)O)C6OS(=O)(=O)O)C(OS(=O)(=O)O)C5OS(=O)(=O)O)C4OS(=O)(=O)O)C(OS(=O)(=O)O)C3OS(=O)(=O)O)C2OS(=O)(=O)O)C(OS(=O)(=O)O)C1OS(=O)(=O)O (stereo not drawn)
activated partial thromboplastin time (human plasma; 64 µg/mL): 343 s and 350 s

Nc1ncc(-c2cc(-c3cnn(CC(F)(F)F)c3)ncc2F)nc1C(=O)NC1CNCC(F)C1 (stereo not drawn)
remaining binding (CSNK1E; KINOMEscan; 1 µM; baseline: DMSO control): 77%

COC1OC(C)C(OS(=O)(=O)O)C(OC2OC(C)C(OS(=O)(=O)O)C(OC3OC(C)C(OS(=O)(=O)O)C(OS(=O)(=O)O)C3O)C2O)C1O (stereo not drawn)
activated partial thromboplastin time (human plasma; 128 µg/mL): 42.4 ± 0.5 s

COC1CN([C@H]2CC[C@H]([C@@]3(C)Oc4c(Cl)cc(C(=O)NCc5c(SC)cc(C)[nH]c5=O)c(C)c4O3)CC2)C1
log2 fold change (RNA-seq, measured: PLVAP; human, whole blood; dose not given, 24 h; baseline: pretreatment baseline): 5.03

Excerpt of the above:
COC1OC(C)C(OS(=O)(=O)O)C(OC2OC(C)C(OS(=O)(=O)O)C(OC3OC(C)C(OS(=O)(=O)O)C(OS(=O)(=O)O)C3O)C2O)C1O (stereo not drawn)
activated partial thromboplastin time (human plasma; 128 µg/mL): 42.4 ± 0.5 s
